Experimental data collected from several papers.
Every numbered part comes from another study and shows a few of its results, in no order. Substitutions count along the parent as printed.
UniProt P18089, sequence (whole entry, looked up): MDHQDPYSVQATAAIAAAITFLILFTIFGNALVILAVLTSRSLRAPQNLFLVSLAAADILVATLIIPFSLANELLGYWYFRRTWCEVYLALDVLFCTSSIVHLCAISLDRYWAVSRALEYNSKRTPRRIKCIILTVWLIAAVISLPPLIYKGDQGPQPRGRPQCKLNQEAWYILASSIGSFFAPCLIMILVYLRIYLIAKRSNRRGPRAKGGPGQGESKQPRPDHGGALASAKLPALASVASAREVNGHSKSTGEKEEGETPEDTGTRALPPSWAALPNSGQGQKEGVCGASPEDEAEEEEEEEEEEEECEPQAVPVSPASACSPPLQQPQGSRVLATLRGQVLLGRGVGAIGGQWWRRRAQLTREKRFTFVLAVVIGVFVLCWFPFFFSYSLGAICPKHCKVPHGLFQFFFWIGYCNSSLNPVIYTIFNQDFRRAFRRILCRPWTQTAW

Set 1
Target: UBE2O UBC core domain (UniProt Q9C0C9)
Method: yeast two-hybrid
Matrix: yeast
Notes: mostly zero background
Relative to: not given
Direction: higher = stronger interaction
B1: MID2 RING domain (UniProt Q9UJV3); chain KMETLESELTCPICLELFEDPLLLPCAHSLCFSCAHRILVSSCSSGESIEPITAFQCPTCRYVISLNHRGL
B2: ARIH2 RING domain (UniProt O95376); chain HVPTSHPPHHCAVCMQFVRKENLLSLACQHQFCRSCWEQHCSVLVKDGVGVGVSCMAQDCPLRTPEDFVF
B3: VPS8 RING domain (UniProt Q8N3P4); chain TRGLNPKQDYCSICLQQYKRRQEMADEIIVFSCGHLYHSFCLQNKECTVEFEGQTRWTCYKCSSSNKVGKLSE
B4: RNF186 RING domain (UniProt Q9NXI6); chain HSGSTECDLECLVCREPYSCPRLPKLLACQHAFCAICLKLLLCVQDNTWSITCPLCRKVTAVPGGLI
B5: ZNRF4 RING domain (UniProt Q8WWF5); chain VRTFTWHNDLCAICLDEYEEGDQLKILPCSHTYHCKCIDPWFSQAPRRSCPVCKQSVAATEDSF
B6: RING1 RING domain (UniProt Q06587); chain SPRSLHSELMCPICLDMLKNTMTTKECLHRFCSDCIVTALRSGNKECPTCRKKLVSKRSLR
Target sequence (chain): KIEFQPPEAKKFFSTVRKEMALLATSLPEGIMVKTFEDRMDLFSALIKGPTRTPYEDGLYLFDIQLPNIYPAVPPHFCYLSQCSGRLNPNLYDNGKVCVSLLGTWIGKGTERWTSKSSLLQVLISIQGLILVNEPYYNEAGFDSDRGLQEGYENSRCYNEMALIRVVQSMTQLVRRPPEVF
`B1 (MID2 RING domain)` — result for “lacZ reporter activity”: 0.
`B2 (ARIH2 RING domain)`: “lacZ reporter activity” 0.
For `B3 (VPS8 RING domain)`, “lacZ reporter activity” read 0.
For `B4 (RNF186 RING domain)`, “lacZ reporter activity” read 0.
`FAEQPSVKLCCQLCCSVFKDPVITTCGHTFCRRCALKSEKCPVDNVKLTVVVNNI (TRAF7 RING domain (UniProt Q6Q0C0))`: “lacZ reporter activity” 0.
Under “lacZ reporter activity”, `LEALSSDFLACKICLEQLRAPKTLPCLHTYCQDCLAQLADGGRVRCPECRETVPVPPEGV (TRIM56 RING domain (UniProt Q9BRZ2))` is recorded as 0.
`B5 (ZNRF4 RING domain)`: “lacZ reporter activity” 0.
`B6 (RING1 RING domain)`: “lacZ reporter activity” 0.

Set 2
Target: CEBPA, bZIP domain (human)
Method: DHFR protein complementation
Matrix: yeast
Notes: single substitutions, most at no-binding floor
Relative to: wild-type JUN-FOS pair
Direction: higher = stronger binding
Parent: JUN, bZIP domain (human); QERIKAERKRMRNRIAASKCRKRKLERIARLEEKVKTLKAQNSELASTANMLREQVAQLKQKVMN; partner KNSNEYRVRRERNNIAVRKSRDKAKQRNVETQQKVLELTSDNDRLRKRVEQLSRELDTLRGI
`L31F` has a binding fitness of -1.51 natural log.
For `A40S`, the binding fitness was -1.5 natural log.
`R53G` has a binding fitness of -1.34 natural log.
The binding fitness of `L38N` is reported as -1.42 natural log.
`L31Y` has a binding fitness of -1.44 natural log.
With `A29W` the binding fitness was -1.51 natural log.
For `A49C`, the binding fitness was -1.48 natural log.
With `E44Y` the binding fitness was -1.54 natural log.

Single results of other studies
For `COCCc1ccc(-c2c(C)nc3c(N4CCOCC4)ccnn23)cn1`, the Ki was over 10 µM (ADRA2B (Homo sapiens, UniProt P18089); binding, radioligand binding).
The remaining compound of `CC(Oc1ccc(F)cc1Br)C(=O)NCC(C)c1ccncc1` (stereo not drawn) is reported as 9.84% (human, microsomes or S9; 2 µM, 0.5 h).

Excerpt of the above (set 1):
`B1 (MID2 RING domain)` — result for “lacZ reporter activity”: 0.
